{"data": "Published values gathered from unrelated publications", "cell line": "KB", "note": "Compare with care: the assays were run in different laboratories. ± gives the spread as reported."}
{"Compound": "O=[N+]([O-])/C=C/c1ccco1", "notes": "mean of three Leishmania species", "reference": "KB CC50 over Leishmania IC50", "endpoint": "selectivity index", "value": 4}
{"Compound": "C=CC(=C)CC[C@]1(C)[C@H](C)CC[C@@]23C(=C[C@H](OC(=O)C(C)C)C[C@@H]12)[C@@H](OC(C)=O)O[C@H]3OC(C)=O", "observed": "cell growth or viability", "technique": "SRB", "endpoint": "IC50", "value": "25.1 µM"}
{"Compound": "C=C(C)[C@@H]1CC[C@]2(COC(=O)CCC(=O)O)CC[C@]3(C)[C@H](CC[C@@H]4[C@@]5(C)CC[C@H](OC(=O)CCC(=O)O)C(C)(C)[C@@H]5CC[C@]43C)[C@@H]12", "observed": "cell growth or viability", "technique": "SRB", "time": "72 h", "endpoint": "IC50", "value": "7.17 µg/mL"}
{"Compound": "C/C(=C\\c1ccco1)[N+](=O)[O-]", "notes": "mean of three Leishmania species", "reference": "KB CC50 over Leishmania IC50", "endpoint": "selectivity index", "value": 11.7}
{"Compound": "N#Cc1c(-c2ccco2)[n+]([O-])c2ccc(F)cc2[n+]1[O-]", "observed": "cell growth or viability", "technique": "resazurin", "time": "72 h", "endpoint": "IC50", "value": "5.59 µM"}
{"Compound": "CCCCCCCCCCCCCCCCC1CC(=O)NCCCN(C)CCCCN(C)CCCN1C (stereo not shown)", "observed": "cell growth or viability", "technique": "neutral red", "time": "48 h", "endpoint": "IC50", "value": "1.9 µg/mL"}
{"Compound": "CN(C)CC(=O)Nc1cccc(Nc2ncc(F)c(Nc3ccc(F)cc3)n2)c1", "observed": "cell growth", "time": "72 h", "endpoint": "GI50", "value": "1.26 ± 0.05 µM"}
{"Compound": "N#Cc1c(-c2ccco2)[n+]([O-])c2ccccc2[n+]1[O-]", "observed": "cell growth or viability", "technique": "resazurin", "time": "72 h", "endpoint": "IC50", "value": "6.52 µM"}
{"Compound": "Cc1cccc2c1NC(=O)C21C2=C(COC2=O)NC2=C1C(=O)c1ccccc1C2=O (stereo not shown)", "observed": "cell growth or viability", "technique": "MTT", "time": "72 h", "endpoint": "IC50", "value": "10 µM"}
{"Compound": "C=CC(=C)CC[C@]1(C)[C@H](C)C[C@H](O)[C@@]23C(=C[C@H](OC(=O)C(C)C)C[C@@H]12)[C@@H](OC(C)=O)O[C@H]3OC(C)=O", "observed": "cell growth or viability", "technique": "SRB", "endpoint": "IC50", "value": "0.56 µM"}
